# Measured values pooled from the literature.
# Each numbered part is a random draw from the data of one study; scales do not carry over between parts. Positions count from the first letter of the parent shown.

# Study 1 — technique: RNA Bind-n-Seq; molecule type: RNA; medium: in vitro; tested at: 365 nM; reference: no-protein control; reading: higher = stronger binding
# Target: RNA binding protein fox-1 homolog 2, RRM domain, GST-SBP tag (RBFOX2, Homo sapiens, UniProt O43251-10, residues 100-194)
# Setting: natural RNA segment, single round, ends assumed
# Shared flanks, not repeated: GGGAGUUCUACAGUCCGACGAUC … UGGAAUUCUCGGGUGCCAA
# Target sequence (chain): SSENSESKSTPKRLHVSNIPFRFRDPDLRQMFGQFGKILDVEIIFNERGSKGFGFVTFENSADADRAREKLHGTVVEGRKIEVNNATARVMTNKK
Sequence,RBNS enrichment (R)
CACCAGCUGUGAAUUCUCCUGCAGACAGGAGGGCCCUGGCUGUGCACCUGGGGAAGUGGUUGCCCUGGGGCCAGGGUGCUUGUUCUGUUCAAAUAAAGGUACCUCUUUUC,1.88
CUGAGAUCAGUACUCCUCUCUUAAGUAUUUAUUAUUAUUAUUAUUUACUUUACCUCAAGCAGACAGACAUAGGUUUUGAGGCUUGAAUACAUGGCAGUGGAAUACAAGGC,0.526
UGUGUUAGAUGGUGACCGAAGUGUUCUCCACUACACCUGUCUGAAGAGAUCUAAGUCUGAUAUUUAAGGAGUGAUAGCAUCUUGCAUACUUAAGAAGGCUUAAAAGACUG,2.13
UAGGGCCACAUCAACCUGAGUUGGUACUGGGUGGCCAGGAUGGGGACUUUCCCAUUCUCAGCUGAGGUUGGAAGAAACCACUCUGGGUGUCCUUUCUGGGACCUGUCUGC,0.275
CUGGUUUGCACUCAGUGUAGAAGAGCUCAGACGGGUGCCAGAUUAGCACUGAGCGGUAAAGGGUCUCUUCAUCUCUGGACAUGAUGGGUGUUGUGUAUGACUCUGUUGCC,0.756
UCAGAAUGCUAUAUUUUUAACAGCACUCCAGCAUUUUUCUUCAUGUAUCACCUUCACUGACUCCAUUGAGUCAUUGAGCAUCUGUACAUAUCCUUCACCACCCCCAGUCC,0.821
UGGGGGAAAUUUUCUAUAAAAGAGUGAACAAUUAUAUUUAUAUUUCAAGUUAAAGUAGUUUGGAUACUUUAGUGGUUUUGUUGUUGUUUCUUCUUUUUCCUUUUUUUUUU,1.16
UAUUAUGCAAGAAAAUCCCAAAAAUAUGUUUUAAGGGAGACUACACAGACCUUGUGAUUUGGUCUGAGCUAGUUGCUGAGUUGACUGGAGCCUUAUUUGAAUGGAUCUUU,0.753
CCACCCCCACCACUCUACUGAAAGAAGAGAGCAACAGAGGUGAGGACCUGCUCUUCUCUAGUUCCAGAUCCUGAUGCUAAUUAAUCUCCUCCAGGACACCACAGUCCUUG,0.508
UACACUUAUCAAAGCUAUUUUCUUAUGAAAACGUCCCUCUCUCCAUACCAUCAGUUUCUCAGUUCCAGAAGUUAUACCUUUAUUUUGAGCUGUGUAUAGGUAGAAUAAAA,0.479
GGGACAGCAUCUGCCCGACUUCCCGUAAAGGCAUAAAGGCACGCAGCCCAAAAGACGGGAAGAGGAGGCCUUUGGCUGCUUGUGUUGACAGCUUAAAGGGGUCUACACCC,3.67
CAAAUGAGUCAGUAUUCUUGGGCAGAAGUGAACAUCCCAAGGAUUCAACAGGGAAUAAACAGGCUCUAGCACAUUAAGGAUGUGGCCUAGGCUGAGUGUUACCUUAAAAU,0.465

# Study 2 — technique: DHFR PCA, deep sequencing; medium: yeast; with: (+)-ABA 0.0091 µM; reference: wild-type fitted maximum; reading: higher = stronger binding
# Target: ABI1, truncated, D143A, DHFR fusion (Arabidopsis thaliana)
# Setting: methotrexate growth selection, single substitutions
# Starting sequence: PYL1, truncated, DHFR fusion (Arabidopsis thaliana); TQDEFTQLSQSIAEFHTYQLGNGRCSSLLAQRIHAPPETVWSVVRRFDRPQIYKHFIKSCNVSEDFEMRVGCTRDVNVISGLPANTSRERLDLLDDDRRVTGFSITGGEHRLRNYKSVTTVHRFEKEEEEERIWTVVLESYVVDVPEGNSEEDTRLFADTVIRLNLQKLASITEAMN
Variant,relative binding score [%]
R24H,3.01
M68A,-2.35
F56I,2.84
S171V,17.6
T173D,-1.09
G71F,-6.75
F47L,-3.1
N149D,12.8
R163I,-0.373
H110P,69.9
C60E,7.11
R123E,45.7
V76S,0.964
A170M,-1.69
T39P,-8.36
E128F,7.45
D96M,-4.63

# Study 3 — technique: RNA Bind-n-Seq; molecule type: RNA; medium: in vitro; tested at: 1 µM; setting: whole 134-nt RNA, ends assumed; with: 150 mM KCl; reference: input library; reading: higher = stronger binding
# Target: Ras GTPase-activating protein-binding protein 1, C-terminal RGG region (G3BP1, Homo sapiens, UniProt Q13283)
# Chain of UniProt Q13283 (whole entry, looked up): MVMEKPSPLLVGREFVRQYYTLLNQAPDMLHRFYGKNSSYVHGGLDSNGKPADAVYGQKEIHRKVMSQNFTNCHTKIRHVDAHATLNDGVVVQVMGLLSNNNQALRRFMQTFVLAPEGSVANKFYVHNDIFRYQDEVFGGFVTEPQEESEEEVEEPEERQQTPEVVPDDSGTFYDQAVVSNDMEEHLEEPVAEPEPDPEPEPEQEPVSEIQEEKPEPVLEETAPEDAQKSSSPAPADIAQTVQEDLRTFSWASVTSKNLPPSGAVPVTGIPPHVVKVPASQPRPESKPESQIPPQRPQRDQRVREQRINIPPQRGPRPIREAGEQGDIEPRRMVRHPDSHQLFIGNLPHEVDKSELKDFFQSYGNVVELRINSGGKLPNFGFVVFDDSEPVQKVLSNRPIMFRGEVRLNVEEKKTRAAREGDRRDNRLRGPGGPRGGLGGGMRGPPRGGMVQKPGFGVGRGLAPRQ
# Shared flanks, not repeated: GGGAGUUCUACAGUCCGACGAUC … UGGAAUUCUCGGGUGUCAAGG
Sequence,log2 enrichment
UGUGACAGGAGAGCGCUUGAAGAGCAAUGUGACGAGGACCAUCAGACACCGAGGGAUGGAGAGACAUCCCACAGGGCCCAGAUUCAGCAG,-0.304
UUUUAUGUGGAGUUAUGAAGACCUACAGGCAGAGAGAGAAACAGGGGAGCAAGGUGCAAGAGUCCACAAAGGGACCUGAUGAAGCGAAGA,-0.745
CUCAAGUCCUGUGCUACACAUCGUAUGUACCGAAUCGGUUUUUGGUUUGGAGGAAAGUAUUAUGUUACGCCGUUCGGAUCUGCACUUCCA,-1.23
GUCCUGUGCUACACAUCGUAUGUACCGAAUCGGGAAAGGGAAAAAGGGAAAAAAAGGGAAAGUAUUAUGUUACGCCGUUCGGAUCUGCAC,-0.466
UGGCCCUGGUGGCAUGCUGGGAGGAAGAGGUGGCCUCAUGGAUCGUGGUGGUCCCGGUGGAAUGUUCAGAGGUGGCCGUGGUGGAGACAG,2.39
CACAGACAACACGCACCCACACAGACACAGAGGGAAGGGGUUGGGAUGGGGACAGGGUGAAAAGCAGGGCGGGGUAGGACCCCAGCCCCU,-0.378
CACAGAGAACACGCACCCACACAGACACAGAGGGAAGGGGUUGGGAUGGGGACAGGGUGCACAGCAGGGCGGGGUAGGACCCCAGCCCCU,0.221
AAGUCCUGUGCUACACAUCGUAUGUACCGAAUCGGGGUUUGGGGUGGGGAAAGGGGAAAGUAUUAUGUUACGCCGUUCGGAUCUGCACUU,1.93
GUCCUGUGCUACACAUCGUAUGUACCGAAUCGGAAAAAGGUUUUUUUGGAAAAAAAGGAAAGUAUUAUGUUACGCCGUUCGGAUCUGCAC,-2.15
ACCAUGCAGGUGGGCAUCUUUGGGAAGUGGGGCAAGGGGGGGAUAGGAAAGGGGGUAACACUUUGGGAACAGGUGGUCCCAGGUCGUUUC,-1.3
UCAAGUCCUGUGCUACACAUCGUAUGUACCGAAUCGGGGCCCGGCCCGGGCCCGGAAAGUAUUAUGUUACGCCGUUCGGAUCUGCACUUC,-2.07
UGGGAGGUGGAUUUUGUUUAUUUUUUUAGCUCAUUUCCAGGGGUGGGAAUUUUUUUUUAAUAUGUGUCAUGAAUAAAGUAGUUUUUGAAA,3.21
ACCAUGCAGGUGGGCAUCUUUGGGAAGUGGGGCAAGGGGGGGAUAGGGAGGGAAAUAACACUUUGGGAACAGGUGGUCCCAGGUCGUUUC,-1.5
GUCCUGUGCUACACAUCGUAUGUACCGAAUCGGGGAAAAGGGGAAAAGGGGAAAAGGGAAAGUAUUAUGUUACGCCGUUCGGAUCUGCAC,0.563

# Study 4 — target: CCNB1, cyclin fold, Cln2 fusion (human); technique: yeast growth competition, sequencing; medium: yeast; setting: weak parent motif; reference: not given; reading: higher = stronger binding
# Starting sequence: RRM2 docking peptide (human); SKTARRIFQEPTE
Variant,normalised enrichment score
T3A,-0.251
F8A,0.0942
K2A,0.303
E10A,0.0827
I7A,0.315
Q9A,0.465

# Study 5 — target: BATF3, bZIP domain (human); technique: DHFR protein complementation; medium: yeast; reference: wild-type JUN-FOS pair; reading: higher = stronger binding
# Setting: single substitutions, most at no-binding floor
# Starting sequence: JUN, bZIP domain (human); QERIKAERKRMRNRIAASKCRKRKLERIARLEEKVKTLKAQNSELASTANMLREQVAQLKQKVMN; partner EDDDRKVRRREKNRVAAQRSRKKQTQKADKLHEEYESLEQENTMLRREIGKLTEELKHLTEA
Variant,binding fitness [natural log]
R30S,0.311
T37S,0.124
S47L,0.212
S43I,0.198
M51W,0.165
A49E,0.108
L45Q,-0.25
S43P,-0.0847
A29Y,0.0862
I28K,0.233
A49T,0.0436
E54D,0.133
K36S,0.238
E44G,0.184
A46E,0.184
N42Y,-0.0709
A29M,-0.0551
V35N,0.0724
L45S,-0.453
A57R,0.171
M51D,0.264
K39M,0.0363
A49M,0.147
